Assay results pooled from the literature.
Each line is one published result; not all experiments were run side by side.
PFF0160c: Dihydroorotate dehydrogenase (quinone), mitochondrial (PFF0160c, Plasmodium falciparum, UniProt Q08210)
BCHE: Cholinesterase (BCHE, Equus caballus, UniProt P81908)
gyrA: DNA gyrase subunit A (gyrA, Escherichia coli K-12, UniProt P0AES4)
PFF0160c E182D: Dihydroorotate dehydrogenase (quinone), mitochondrial (PFF0160c, Plasmodium falciparum, UniProt Q08210, E182D)
Sialidase-3: Sialidase-3 (Homo sapiens, UniProt Q9UQ49)
HLA class I histocompatibility antigen, B alpha chain: HLA class I histocompatibility antigen, B alpha chain (Homo sapiens, UniProt P01889)

SMILES	tested on	test	test system	setting	quantity	result
O=C(CSc1nccn1C1CCCCC1)Nc1cc(C(F)(F)F)ccc1Cl	PFF0160c	enzyme activity, inhibitor, absorbance	–	–	IC50	290 nM
CCn1cc(C)c2c(C(O)c3ccc(Cl)c(F)c3)n(C)nc2c1=O (centres unmarked)	PFF0160c	enzyme activity, inhibitor	–	–	IC50	23 nM
O=C(/C=C/c1ccc(OC(=O)N2CCCC2)cc1)NC1CCN(Cc2ccccc2)CC1	BCHE	enzyme activity, inhibitor, Ellman	–	–	IC50	20300 nM
Cn1c(=O)ccc2ccc(F)c(CCNC[C@H]3CN(c4cnc5c(n4)NC(=O)CO5)C(=O)O3)c21	gyrA	enzyme activity, inhibitor	–	–	IC50	4.6 nM
CC(C)C[C@H](NC(=O)OCc1ccccc1)C(=O)N[C@@H](CC1CCNC1=O)C(O)S(=O)(=O)O (some centres unmarked)	Calpain-1 catalytic subunit (CAPN1, Homo sapiens, UniProt P07384)	enzyme activity, inhibitor	–	–	IC50	89 nM
Cc1[nH]c(C)c(-c2ccc(OCCn3cnc(Cl)c3Cl)cc2)c(=O)c1Br	PFF0160c E182D	enzyme activity, inhibitor, absorbance	–	–	IC50	> 10000 nM
CC(C)CNC(=O)N[C@H]1[C@H]([C@H](O)[C@H](O)CO)OC(C(=O)O)=C[C@@H]1O	Sialidase-3	enzyme activity, inhibitor	–	–	IC50	190000 nM
CCCOc1ccccc1-c1nc2sc3c(c2c(=O)[nH]1)CCN(C)C3	PFF0160c	enzyme activity, inhibitor, absorbance	–	–	IC50	699 nM
CCn1cc(C2CC2)c2c([C@H](N)c3ccc(C(F)(F)F)nc3)n(C)nc2c1=O	PFF0160c	enzyme activity, inhibitor	–	–	IC50	200 nM
Cc1sc(CNCCCNc2cc(=O)c3ccccc3[nH]2)c(I)c1C	PFF0160c	enzyme activity, inhibitor, absorbance	–	–	IC50	1790 nM
CCOC(=O)c1nnn(-c2cccc(NC(=O)Nc3ccc(Cl)c(Cl)c3)c2)c1C	Mycobacteroides chelonae	microbial growth, broth dilution	ATCC35752	48 h	MIC	> 64 µg/mL
CCN(C)C(=O)Oc1ccc(/C=C/C(=O)NC2CCN(Cc3ccccc3)CC2)cc1OC	BCHE	enzyme activity, inhibitor, Ellman	–	–	IC50	3000 nM
CN1C(=O)Cc2ccc(F)c(CCNCC[C@H]3CN(c4ccc5c(n4)NC(=O)CO5)C(=O)O3)c21	gyrA	enzyme activity, inhibitor	–	–	IC50	100 nM
Oc1c(C(Nc2ccccn2)c2ccco2)cc(Cl)c2cccnc12 (centres unmarked)	PFF0160c	enzyme activity, inhibitor, absorbance	–	–	IC50	8700 nM
CCN(C)C(=O)Oc1ccc(CCC(=O)N2CCC(Cc3ccccc3)CC2)cc1	BCHE	enzyme activity, inhibitor, Ellman	–	–	IC50	12500 nM
Cc1cc(Nc2ccc(C)c(Cl)c2)n2ncnc2n1	PFF0160c	enzyme activity, inhibitor, absorbance	–	–	IC50	495 nM
[2H]c1c([2H])c([C@]2([2H])CCCN2C(=O)C(C)(C)Oc2ccc3cn[nH]c3c2)c([2H])c([2H])c1C([2H])([2H])[2H]	Calcium/calmodulin-dependent protein kinase kinase 1 (CAMKK1, Homo sapiens, UniProt Q8N5S9)	binding, competition with immobilised ligand	–	1 µM	remaining binding	81%
CCOC(=O)c1[nH]nc(Cc2ccc(C(F)(F)F)cc2)c1C	PFF0160c	enzyme activity, inhibitor	–	–	IC50	> 30000 nM

SMILES	tested on	test	test system	setting	quantity	result
CCCCNC(=O)N[C@H]1[C@H]([C@H](O)[C@H](O)CO)OC(C(=O)O)=C[C@@H]1O	Sialidase-4 (Homo sapiens, UniProt Q8WWR8)	enzyme activity, inhibitor	–	–	IC50	> 500000 nM
CC[C@](N)(c1cnc(C(F)(F)F)c(Cl)c1)c1c2ncn(C3CC3)c(=O)c2nn1C	PFF0160c	enzyme activity, inhibitor	–	–	IC50	3980 nM
CC(C)[C@H](NC(=O)[C@@H](N)CCCCN)C(=O)N[C@@H](CC(=O)O)C(=O)N1CCC[C@H]1C(=O)N[C@@H](CCCCN)C(=O)N[C@@H](Cc1ccccc1)C(=O)N[C@H](C(=O)N[C@@H](CO)C(=O)N[C@@H](Cc1ccccc1)C(=O)O)[C@@H](C)O	HLA class I histocompatibility antigen, B alpha chain	cell-free assay	–	–	IC50	37300 nM
Cc1nn(C)cc1-c1nc2c(N3CCN(Cc4ccc(Cl)cc4)CC3)c(Cl)cnc2[nH]1	Serine/threonine-protein kinase DCLK1 (DCLK1, Homo sapiens, UniProt O15075)	binding, competition with immobilised ligand	–	1 µM	remaining binding	80%
Cn1nc2c(=O)n(C)ccc2c1Cc1ccc(C(F)(F)F)nc1	PFF0160c	enzyme activity, inhibitor	–	–	IC50	4200 nM
CC[C@H](C)[C@H](NC(=O)[C@H](Cc1c[nH]cn1)NC(=O)[C@H](CCCCN)NC(=O)[C@H](Cc1ccc(O)cc1)NC(=O)[C@@H](NC(=O)[C@@H](N)Cc1c[nH]cn1)C(C)C)C(=O)N[C@@H](CC(C)C)C(=O)N[C@H](C(=O)N[C@@H](Cc1ccccc1)C(=O)O)[C@@H](C)O	HLA class I histocompatibility antigen, B alpha chain	cell-free assay	–	–	IC50	8640 nM
c1nc2nc3c(c(Nc4ccc5c(c4)CCC5)n2n1)CCC3	PFF0160c E182D	enzyme activity, inhibitor, absorbance	–	–	IC50	> 10000 nM
CCn1cc(C2CC2)c2c(Cc3cnc(C(F)(F)F)c(C)c3)n(C)nc2c1=O	PFF0160c	enzyme activity, inhibitor, absorbance	–	–	IC50	40 nM
CN(C(=O)CC(C)(C)C)[C@H]1[C@H]([C@H](O)[C@H](O)CO)OC(C(=O)O)=C[C@@H]1O	Sialidase-3	enzyme activity, inhibitor	–	–	IC50	190000 nM
Nc1ncc(-c2nc(N3CCOCC3)nc(N3CCOCC3)n2)c(C(F)F)n1	Mitogen-activated protein kinase kinase kinase 13 (MAP3K13, Homo sapiens, UniProt O43283)	binding, competition with immobilised ligand	–	10 µM	remaining binding	100%
CCCCCC(=O)N(C)[C@H]1[C@H]([C@H](O)[C@H](O)CO)OC(C(=O)O)=C[C@@H]1O	Sialidase-3	enzyme activity, inhibitor	–	–	IC50	> 500000 nM
CC(c1ccc(OC(F)(F)F)cc1)c1nn2c(-c3cccs3)nnc2s1 (centres unmarked)	PFF0160c	enzyme activity, inhibitor, absorbance	–	–	IC50	1440 nM
CC[C@H](C)[C@H](NC(C)=O)C(=O)N[C@@H](CCC(=O)O)C(=O)N[C@H](C(=O)N[C@H](C=O)CC(=O)O)[C@@H](C)O	Caspase-5 (CASP5, Homo sapiens, UniProt P51878)	enzyme activity, inhibitor	–	–	IC50	8.18 nM
CC[C@H](C)[C@H](NC(=O)[C@@H](N)CCCNC(=N)N)C(=O)N[C@@H](Cc1ccccc1)C(=O)NCC(=O)N[C@@H](Cc1c[nH]cn1)C(=O)N1CCC[C@H]1C(=O)N[C@@H](Cc1c[nH]cn1)C(=O)N[C@@H](CC(C)C)C(=O)N[C@@H](Cc1ccccc1)C(=O)O	HLA class I histocompatibility antigen, B alpha chain	cell-free assay	–	–	IC50	1210 nM
CC(C)CCC(=O)N[C@H]1[C@H]([C@H](O)[C@H](O)CO)OC(C(=O)O)=C[C@@H]1O	Sialidase-3	enzyme activity, inhibitor	–	–	IC50	> 500000 nM
COC(=O)c1cc(-c2cccc(NC(=S)Nc3ccc(OC)cc3)c2)on1	Mycolicibacterium fortuitum	microbial growth, broth dilution	ATCC6841	48 h	MIC	> 64 µg/mL
COc1ccc(S(=O)(=O)Oc2ccc3ccccc3c2C=NNC(=O)c2ccc(F)cc2)cc1	Carbonic anhydrase 2 (CA2, Homo sapiens, UniProt P00918)	enzyme activity, inhibitor, absorbance	–	–	IC50	252 nM

A few entries again:
SMILES	tested on	test	test system	setting	quantity	result
CC(C)CNC(=O)N[C@H]1[C@H]([C@H](O)[C@H](O)CO)OC(C(=O)O)=C[C@@H]1O	Sialidase-3	enzyme activity, inhibitor	–	–	IC50	190000 nM
CCCOc1ccccc1-c1nc2sc3c(c2c(=O)[nH]1)CCN(C)C3	PFF0160c	enzyme activity, inhibitor, absorbance	–	–	IC50	699 nM
CCn1cc(C2CC2)c2c([C@H](N)c3ccc(C(F)(F)F)nc3)n(C)nc2c1=O	PFF0160c	enzyme activity, inhibitor	–	–	IC50	200 nM
Cc1sc(CNCCCNc2cc(=O)c3ccccc3[nH]2)c(I)c1C	PFF0160c	enzyme activity, inhibitor, absorbance	–	–	IC50	1790 nM
CCOC(=O)c1nnn(-c2cccc(NC(=O)Nc3ccc(Cl)c(Cl)c3)c2)c1C	Mycobacteroides chelonae	microbial growth, broth dilution	ATCC35752	48 h	MIC	> 64 µg/mL
